Measured values gathered from unrelated publications.
A part holds a random share of what one study measured.

Series 1 — technique: RNA Bind-n-Seq; molecule type: RNA; medium: in vitro; tested at: not given; reference: input RNA pool; reading: higher = stronger binding; endpoint: bound/input enrichment
Target: RING finger protein unkempt homolog, zinc fingers 1-6, GST-SBP tag (UNK, Homo sapiens, UniProt Q9C0B0, residues 30-357)
UniProt Q9C0B0, sequence (30-357, looked up): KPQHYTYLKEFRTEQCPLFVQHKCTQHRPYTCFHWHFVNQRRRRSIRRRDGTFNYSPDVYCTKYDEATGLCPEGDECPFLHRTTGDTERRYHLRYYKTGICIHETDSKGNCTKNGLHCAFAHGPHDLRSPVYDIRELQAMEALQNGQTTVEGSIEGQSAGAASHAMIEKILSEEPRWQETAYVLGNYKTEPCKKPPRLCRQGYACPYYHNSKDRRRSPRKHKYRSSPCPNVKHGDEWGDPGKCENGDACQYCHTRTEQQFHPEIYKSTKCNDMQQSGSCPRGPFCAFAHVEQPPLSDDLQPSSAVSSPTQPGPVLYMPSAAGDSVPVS
Notes: RNA with constant flanks, human and mouse sites, ends assumed
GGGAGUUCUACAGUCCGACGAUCAGGGAAAUAUUAUCUGAUGACAAGCAUGAUUGGGAGCAGAGAGUAAAUGCUCUAAAAAAGAUUAGAUCUUUACUUUUGGCUGGUGCUGCUGAGUAUGAUAACUUCUUUCAACAUUUGCGUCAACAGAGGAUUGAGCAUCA: 0.298 ratio
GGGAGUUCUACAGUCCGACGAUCAUAAUGUUUGAGUCCUUCAAUGUUCCAGGCUUGUACAUUGCUGUGCAGGCUGUUCUUGCCUUAGCUGCAUCUUGGACCUCAAGACAAGUAGGAGAACGGACGUUGACCGGUACGGUAAUACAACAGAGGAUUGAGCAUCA: 0.186 ratio
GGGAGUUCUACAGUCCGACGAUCCCUCAUAGACCUUAUUAGAUAAUGCUGUUUUCUGGGCUCCUUAACUUCCAAAAUAGCUACUAGUUUCCAUUUUUGGUUACAUUGUGAACUAUUUCCAUAUUCCUCUUAACAUGCUAUUUUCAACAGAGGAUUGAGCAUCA: 11.9 ratio
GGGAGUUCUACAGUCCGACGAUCGGUGUCUCCAGGGACCCUCGGAGUACUUGUGGGAUCUAAAGUUGAUUCAAGAUGAUUUCUGGGAUUUGAAAUUACCCAGUGGGAAGCAUAUACAUGCAUACAAAUACUUAUGUACAUUAUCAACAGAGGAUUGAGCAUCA: 0.142 ratio
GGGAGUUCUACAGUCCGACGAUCUUUUGAACAUUUUGCCCCACUACACUGUUUUGGGGAUAGCUGGGUUAAGCAAGUUAAAGAUAUUUACAUUUAUAUUGGAAUUUUAGCAACUUUUUUUCAGGUUAAAUAUAUAAUUUCAAGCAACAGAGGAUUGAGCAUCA: 3.08 ratio
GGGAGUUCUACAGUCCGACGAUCCGGUUGGUGUGGAGAACUCUGCGAGUCUCUUGGGUUUUUUGUUUUUUGUUUUUUCCAGCUUCUUUCCGCCUCUAUUCUGCCUGUUCUGUAGGGCGCAGUUAUGGGUCGCAAGAAGAAGAACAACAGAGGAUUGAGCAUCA: 0.363 ratio
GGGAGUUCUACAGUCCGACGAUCAGCAUUUGAUUAUUUUUUUUAAAUACACUCUCUUAUUUUUCUACUUGUUUUUUUGUUAAUCAUAGCAGGAUAUGACAACUCUUAUUUGAAUUGAUUUUUUCAUCUAAUGUAAUAAUGGAACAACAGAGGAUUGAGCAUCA: 2.66 ratio
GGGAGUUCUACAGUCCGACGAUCGAAGAUUUCUAUUCAACAUUUCAGGUUUUUCAAGAAGAAUUUGGAGUAAUUAAAUCCUAUAACUUAAAACCAGGGGGUGAUAAGAUUCCAGUUACCAAUCAGAAUAGAAGAGAGUAUGUACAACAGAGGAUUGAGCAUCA: 0.707 ratio

Series 2 — technique: protein-binding microarray; molecule type: double-stranded DNA, one strand shown; medium: in vitro; tested at: 2200 nM top; notes: 60-bp whole probe; with: salmon DNA 0.4 mg/ml; reference: random background probes; reading: higher = stronger binding; endpoint: fitted relative affinity; constant ends, left off below: GCCTAGCAC … GTCTTGATTCGCTTGACGCTGCTG
Target: Interferon regulatory factor 7, full length, phosphomimetic (IRF7, Homo sapiens, UniProt Q92985, residues 1-503, S471D/S472D/S475D/S476D/S477D/S483D/S484D/S487D)
Construct (chain): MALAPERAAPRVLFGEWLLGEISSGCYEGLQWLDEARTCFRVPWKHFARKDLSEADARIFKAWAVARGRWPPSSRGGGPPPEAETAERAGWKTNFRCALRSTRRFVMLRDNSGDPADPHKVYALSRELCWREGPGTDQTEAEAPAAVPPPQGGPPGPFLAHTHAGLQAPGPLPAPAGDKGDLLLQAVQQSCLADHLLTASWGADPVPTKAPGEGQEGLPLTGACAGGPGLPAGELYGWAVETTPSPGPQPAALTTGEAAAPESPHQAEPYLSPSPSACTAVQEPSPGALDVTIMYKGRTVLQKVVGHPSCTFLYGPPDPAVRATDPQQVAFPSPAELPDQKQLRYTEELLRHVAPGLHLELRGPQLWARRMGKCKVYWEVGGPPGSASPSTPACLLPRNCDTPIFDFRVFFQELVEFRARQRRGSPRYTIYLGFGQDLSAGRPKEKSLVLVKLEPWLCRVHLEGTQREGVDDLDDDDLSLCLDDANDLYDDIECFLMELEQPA
TCAAATCTTGAGTTAGAACTGTGCTAG: -0.523 z-score
GACGGTATCGGTATCGGGACGTGCTAG: 0.39 z-score
GACGGTATCGGGCATCGGGACGTGCTA: -0.607 z-score
GCCGGACTGGGTTTCGGGACGTGCTAG: 0.587 z-score
TTAGGTTCCCTTTTCCTCTAGTGCTAG: 2.85 z-score
TTAGGTCTCGGTTTCGCTTAGTGCTAG: 5.12 z-score
TTAGGACTGCTACTGCTTTCGTGCTAG: 1.01 z-score
TTAGGTATACTACTGCTTTAGTGCTAG: 0.453 z-score
GACGATCTCAGTCTCGATACGTGCTAG: 0.508 z-score
CTAGGTTTCGACTTTCGGTTAGTGCTA: 10.5 z-score
ATCATTTTCGTTTTTATTATGTGCTAG: 10.1 z-score
GGCATTTTTTTTATCAATCAGTGCTAG: -0.066 z-score
TGCTTCCTAATTCTCTTTTCGTGCTAG: 2.69 z-score
CTAGATTTCAGACTGGATTAGTGCTAG: 0.124 z-score
GACCGTCTCCTTATCCTGACGTGCTAG: 1.68 z-score
GCCGGACTGCTTTTCCTGACGTGCTAG: 0.408 z-score
GACTATGCCGACTTTGGAAGTGTGCTA: -0.246 z-score
AGCACTCTTCTTTTTTTTCTGTGCTAG: 1.26 z-score
GACGGTCTCGGAATCGGGACGTGCTAG: -0.186 z-score

Series 3 — technique: RNA Bind-n-Seq; molecule type: RNA; medium: in vitro; tested at: 365 nM; reference: no-protein control; reading: higher = stronger binding; endpoint: RBNS enrichment (R)
Target: RNA binding protein fox-1 homolog 2, RRM domain, GST-SBP tag (RBFOX2, Homo sapiens, UniProt O43251-10, residues 100-194)
Notes: natural RNA segment, single round, ends assumed
Construct (chain): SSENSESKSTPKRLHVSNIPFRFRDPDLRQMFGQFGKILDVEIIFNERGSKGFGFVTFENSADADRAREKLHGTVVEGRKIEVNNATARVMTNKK
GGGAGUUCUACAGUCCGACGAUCAAAACCUUGAAGUGCUGUAUAGUGAAGUAUAAAUUAAUGUUUUAUUGAUUUGUGAAGAAUUUAAGACUAUUAUAUAAUUAUCUUGGUGGAUCUAUUUUAUGCAUGACCUUUGGAAUUCUCGGGUGCCAA: 3.03
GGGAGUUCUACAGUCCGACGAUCAUAUCUUUUCUUUAGAGAACUGAAAAGAGAGCAGAGAAUAUAACAUGAAAUGAUAGAUUUGACCUCCUCCCUGUUAUUUUCAAGUAGCUGGGAUUUUAAACUAGAUGACCUGGAAUUCUCGGGUGCCAA: 0.405
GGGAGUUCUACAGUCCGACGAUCGAGAACUUGGAAUGUUUGAACCACAGCCCUCAGAACUUUAGUAACAGCACAACAAAUUAAAACAACUCAUGCCACAGUAUGUUGUCUUCAUGUGUCUUGCAAUGAACUGUUGGAAUUCUCGGGUGCCAA: 0.692
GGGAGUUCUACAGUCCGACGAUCGGAUCGGGCCCCCGUAGUCCUGGCAGCCCUGUUGUCUGGAGGGUUCUUGUUGUCCCUCCCAUUAGCCAGGGCGGAGACUGUCUGAGCUGUGCAGGAGGAGGGUUGCUAGUUGGAAUUCUCGGGUGCCAA: 0.613
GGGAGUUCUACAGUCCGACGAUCCCUGGCAGAGCGCCCCUGGCGCCUGAGACUACCACCCACUCCGUUCCUGCCAGAAACGACCCUCUGUGGCCGAUGGGCCAUGCGGGCCCCUCGCAGCCAACUCAGCCAGUUGGAAUUCUCGGGUGCCAA: 0.265
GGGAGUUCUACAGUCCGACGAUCAUUAAGAAAUUGGUUAUUAUGCUUACUGUUCUAAUCUGGUGGUAAAGGUAUUCUUAAGAAUUUGCAGGUACUACAGAUUUUCAAAACUGAAUGAGAGAAAAUUGUAUAACUGGAAUUCUCGGGUGCCAA: 1.16
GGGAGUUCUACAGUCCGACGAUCCCUCUCUCCCUCUCCCCCUCAACAGAAGGAAGGCUAUCUGUUGUCAUUCUCUUCCUGGCCAGUAGGAGUGCUGCUGUGCAGGGUCACUGCCUGCCCUGCUCCCUCUCUGGUGGAAUUCUCGGGUGCCAA: 0.74
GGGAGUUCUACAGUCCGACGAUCGUUUGUUUGUUUUUUUUAAAUAGUGCCUUUGUCUUAUUUCAAGGGUGUUCAUAAAUGGUAUUUGUACCAUUUUUUUUUUUAAUAAGUUAAAGACAGUCCAGAGCUUUUCAUGGAAUUCUCGGGUGCCAA: 0.548

Series 4 — technique: aptamer microarray, sandwich; molecule type: DNA with 2'F-ANA; medium: in vitro; tested at: 200 nM; with: Cy3 exosite-II aptamer, 400 nM; reading: higher = stronger binding; endpoint: mean fluorescence intensity; sequence: GGTTGGTGTGGTTGG
Target: Prothrombin, mature alpha-thrombin (F2, Homo sapiens, UniProt P00734)
Notes: whole 15-mer aptamer, many near background
2'F-ANA at 2 3 4 7 8 9 10 11 12 13 14 15: 161 a.u.
2'F-ANA at 2 3 4 5 7 10 11 13 15: 48.5 a.u.
2'F-ANA at 2 3 7 9 11 13: 682 a.u.
2'F-ANA at 3 5 6 9 10 12 14 15: 52.5 a.u.
2'F-ANA at 7 8 10 11 12 13 15: 199 a.u.
2'F-ANA at 1 2 3 6 7 10: 64.8 a.u.
2'F-ANA at 6 12 14: 226 a.u.
2'F-ANA at 2 3 4 5 8 10 11 12 14: 50.9 a.u.
2'F-ANA at 2 3 10 12 15: 486 a.u.
2'F-ANA at 3 5 7 9 11 13 14: 107 a.u.
2'F-ANA at 2 4 5 6 8 9 10 14: 59.7 a.u.
2'F-ANA at 1 2 3 5 8 10 11 12 14: 95.6 a.u.
2'F-ANA at 1 5 6 7 8 9 11 14 15: 65.7 a.u.
2'F-ANA at 2 3 5 6 8 9 11 13 15: 74.9 a.u.
2'F-ANA at 2 4 5 8 12: 152 a.u.
2'F-ANA at 1 2 5 6 7 11 12 14 15: 118 a.u.
2'F-ANA at 2 3 5 7 10 12 14 15: 52.8 a.u.
2'F-ANA at 3 5 6 8 10 11 13 15: 58.3 a.u.
2'F-ANA at 5 7 8 9 12 13 14 15: 46.1 a.u.
2'F-ANA at 1 2 3 5 6 10 11 12 14 15: 73.2 a.u.
